Measured values pooled from the literature.
Lines come from different studies, so protocols differ. ± marks the error that the study gave.

C[C@]1(CO)Cc2ncn(-c3ccc(C#N)c(Cl)c3)c2C(=O)O1: “drug-related Acne incidence” 0% (Japanese subjects; 3 mg single dose).
CCc1ccc(CC/C=C/c2ccc3c(c2)C(=O)CC3)cc1 has an APTT of 15.4 s (Sprague-Dawley rat, male, blood; oral, 30 mg/kg/day, 14 days).
Under “dose fraction in milk fat”, O=C(O)CNCP(=O)(O)O is recorded as 0.8% (whole cow milk; 20 nM nominal).
CCC(CC)COC(=O)[C@H](C)N[P@](=O)(OC[C@H]1O[C@@](C#N)(c2ccc3c(N)ncnn23)[C@H](O)[C@@H]1O)Oc1ccccc1 gave a CC50 of > 10 µM (human cells; 48 (unit not given)).
For COc1cc2c(Oc3ccc4[nH]c(C)cc4c3F)ccnc2cc1OCC1(N)CC1, “incidence of adverse event” read 40% (item: grade 1 or 2 abdominal pain; paediatric high-risk refractory sarcoma; 8 mg).
With Clc1ccc(-c2ccccc2)cc1 the alkaline phosphatase was 183 ± 58 U/L (Sprague-Dawley rats, female, serum; inhalation, 23 µg/rat, 4 h after exposure).
COc1ccc(-c2c(-c3ccc(C#N)c(F)c3)nc(N3CCC(N)CC3)n(C)c2=O)cc1F — result for “serious adverse event incidence”: 2% (item: Neutropenia; human patients; oral, dose not given, dose escalation, NG).
For C[C@@H](NC(=O)N1C(=O)[C@H](Cc2ccnc(N)c2)[C@H]1C(=O)O)C1CCCCC1, “incidence of hypokalemia” read 0% (healthy adult Chinese volunteers; continuous intravenous infusion, 1.5 mg/kg/h, 5-day infusion, CTCAE 5.0 grading).
The Tmax of CC(=O)c1c(C)c2cnc(Nc3ccc(C4CCN(CCS(C)(=O)=O)CC4)cn3)nc2n(C2CCCC2)c1=O is reported as 1.33 h (human, plasma; oral, 25 mg, day 1 single dose).
C[C@]1(O)C[C@@](N)(c2ccc(-c3nc4n(c3-c3ccccc3)COc3ccncc3-4)cc2)C1: “patients with any TEAE” 100% (human, advanced or metastatic solid tumours; dose not given, once-daily dose escalation total).
For O=c1nc(NO)ccn1[C@@H]1O[C@H](CO)[C@@H](O)[C@H]1O, the freeze-thaw stability was 102 ± 5.33% (rat fetus dialysate; 25 ng/mL, low concentration, three cycles, together with: molnupiravir 5 ng/mL).
With CO[C@H]1C[C@@H]2CC[C@@H](C)[C@@](O)(O2)C(=O)C(=O)N2CCCC[C@H]2C(=O)O[C@H]([C@H](C)C[C@@H]2CC[C@@H](OC(=O)NCCOCCOCCOCCOCCOCCOCCOCCOCCC(=O)N3CCc4cc(Cn5nc(-c6ccc7oc(N)nc7c6)c6c(N)ncnc65)ccc4C3)[C@H](OC)C2)C[C@@H](O)[C@H](C)/C=C(\C)[C@@H](O)[C@@H](OC)C(=O)[C@H](C)C[C@H](C)/C=C/C=C/C=C/1C the dysgeusia incidence was 0% (patients with advanced solid tumours; intravenous, 16 mg weekly, grade 3 or higher).
Under “elimination rate constant”, N=C(N)NCCNC(=O)C1(Nc2ccccc2)CCN(Cc2ccccc2)CC1 is recorded as 0.000222 ± 2.78e-05 s⁻¹ (male Sprague-Dawley rats; intravenous, 2.5 mg/kg).

Some of these lines once more:
For COc1cc2c(Oc3ccc4[nH]c(C)cc4c3F)ccnc2cc1OCC1(N)CC1, “incidence of adverse event” read 40% (item: grade 1 or 2 abdominal pain; paediatric high-risk refractory sarcoma; 8 mg).
